Published values of several laboratories.
Compare with care: the assays were run in different laboratories. Values joined by “and” are separate records of one study, mostly repeats; a detail may differ. ± gives the spread as reported.

Structure (SMILES)	assay	system	setting	how to read	measurement	result
N#Cc1ccc2c(c1)[C@H]1CCCN(C(=O)c3ccc4[nH]cnc4c3)[C@H]1C2	item: fasting plasma insulin	human, Phase II trial	oral, 80 mg once daily, day 28, adjusted mean, SE		change from baseline	12.6 pmol/L
C[C@H](Oc1ccc(Br)cc1-c1ccon1)C(=O)O	muscle velocity recovery cycle	human, tibialis anterior muscle	200 mg once daily, last response peak at 15 Hz, multiple ascending dose		difference from placebo	7.28%
O=C1Nc2cc3[nH]nc(-c4ccncc4)c3cc2CN1Cc1ccccc1	RECIST v1.1	human, relapsed or refractory advanced solid tumours	intravenous, 7.2 mg/kg		complete response, best response	0%
N#Cc1ccn2c(-c3ccncc3)c(-c3ccc(F)cc3)nc2c1	kinase binding, competitor, MIB/MS competition, item: FPK1	Candida albicans cell lysate	100 nM	reference: DMSO	log2 fold change	-0.131
C[C@@H](NC(=O)N1C(=O)[C@H](Cc2ccnc(N)c2)[C@H]1C(=O)O)C1CCCCC1		human	iv infusion, 0.6 mg/kg/h, 24 h		PT AUEC	1670 h·s
N#Cc1ccc2c(-c3ccncc3)c(-c3ccc(F)cc3)nn2c1	kinase binding, competitor, MIB/MS competition, item: TPK2	Candida albicans cell lysate	10 µM	reference: DMSO	log2 fold change	0.109
C[C@@H](O)CCOC(=O)C[C@@H](C)O	item: C8:1-DC acylcarnitine	human, plasma	60 min, log2-transformed values		metabolite level	-5.11 ± 0.69 µmol/L
C[C@H]1C[C@H]2CSC(N)=N[C@@]2(c2nc(NC(=O)c3ccc(OC(F)F)cn3)cs2)CO1	item: Aβ1-40	healthy adults, plasma	5 mg once daily, day 4	reference: placebo	percent change from baseline	-53.7%
COC[C@@H](c1ccc(C(F)(F)F)cc1)N1CCN(C2(C)CCN(C(=O)c3c(C)ncnc3C)CC2)C[C@@H]1C		HIV-1 infected patients, plasma	5 mg, week 48, with optimized background regimen	reference: baseline	change in HIV-1 RNA	-2 log10 copies/mL
Cn1cc([C@H]2C[C@H]3CSC(N)=N[C@@]3(c3ccc(F)cc3F)CO2)cn1	item: Aβx-40	wild-type mouse, brain	subcutaneous, 10 mg/kg, 6 h		brain Aβ40 level	1.73 ng/g
NC(=O)c1cnc2[nH]ccc2c1N[C@@H]1[C@@H]2CC3C[C@H]1C[C@@](O)(C3)C2	CD4+ memory T cells, flow cytometry	Caucasian humans, peripheral blood	200 mg single dose	reference: baseline	percent change	0.3%
Cc1n[nH]c2ccc(-c3cc(OC[C@@H](N)Cc4ccccc4)cnc3-c3ccoc3)cc12	kinase binding, competitor, MIB/MS competition, item: IKS1	Candida albicans cell lysate	1 µM	reference: DMSO	log2 fold change	-0.0927
CC(C)[C@H](C(=O)Nc1ccc(C(=O)NO)cc1)c1ccccc1	volumetric MRI	human, left IAC schwannoma	dose not given, day 23		tumour volume	16.2 cm3
CCN(CC)CCNC(=O)c1cc(S(C)(=O)=O)ccc1OC	catalepsy bar test	female CD-1 mice	intraperitoneal, 200 mg/kg, 90 min after dosing		time on bar	46.1 s and 40.5 s and 18.8 s and 35.3 s and 3.39 s
COc1ncc(-c2nc3c(n2C(C)C)[C@H](c2ccc(Cl)cc2)N(c2cc(Cl)cn(C)c2=O)C3=O)c(OC)n1	International Working Group criteria	human acute myeloid leukemia patients	oral, 250 mg, response CRi, high-dose, recommended dose for expansion		best overall response	13.3%
CCCCCN1C[C@H](O)[C@@H](O)[C@H](O)[C@@H]1CO		Hexb-/- mouse, cerebral cortex	300 mg/kg/day, unit not given	reference: 30 mg/kg/day	increased sphingolipid species	3
Cc1sc2c(c1C)C(c1ccc(Cl)cc1)=N[C@@H](CC(=O)NCCCCCCCCNC(=O)COc1cccc3c1C(=O)N(C1CCC(=O)NC1=O)C3=O)c1nnc(C)n1-2 (some centres unmarked)	flow cytometry	4T1 tumour-bearing mice, lymph nodes	dose not given		CD80+ CD86+ dendritic cells	31.8% and 33.4% and 30.2% and 30%
Cc1ncsc1-c1ccc(CNC(=O)[C@@H]2C[C@@H](O)CN2C(=O)[C@@H](NC(=O)C2(C#N)CC2)C(C)(C)C)cc1	immunostaining, item: F4/80	mouse, meningeal perivascular	dose not given, together with: urotensin II		macrophage density	11 cells/mm²
Cc1cc(Nc2ccc(S(F)(F)(F)(F)F)cc2)n2nc(C(C)(F)F)nc2n1	item: dihydroorotate	female CD-1 mice, pooled urine	oral, 300 mg/kg daily, 8-24 h after dose 3		DHO concentration	5.4 ± 0.229 µM
Cn1cc(Nc2nccc(-c3ccc4c(c3)CN(C3COC3)CC[C@H]4NC(=O)c3cn(C(C)(C)C)nn3)n2)cn1	item: non-small cell lung cancer	splenic B cells, mice	30 mg/kg, IgD-activated in vivo	reference: vehicle, direction not given	pathway activation z-score	2.11
COc1ccccc1[C@H](Cn1c(=O)n(C(C)(C)C(=O)O)c(=O)c2c(C)c(-c3ncco3)sc21)OC1CCOCC1	[1-13C]acetate infusion, isotopomer analysis	overweight or obese healthy men, plasma VLDL-TG palmitate	oral, 50 mg single dose, 10 h post-dose, together with: oral fructose		fractional hepatic DNL	21.7 % new palmitate

Structure (SMILES)	assay	system	setting	how to read	measurement	result
O=C(O)CNC(=O)Cc1ccccc1		ventricular cardiomyocytes, C57BL/6 mouse	dose not given, 0.284 s		sarcomere length	1.69 µm
O=C(OC(C(F)(F)F)C(F)(F)F)N1CCN(Cc2cccc(Oc3ccccc3)c2)CC1	PET blocking study	rhesus monkey, brain HIP	0.01 mg/kg, compound pretreatment, together with: [18F]T-401 tracer		k3	0.102 min⁻¹
CN(C(=O)n1cnc(-c2ccc[n+]([O-])c2)c1)C1CCCCC1	item: PEA	human, plasma	10 mg single dose		AUC(0-t)	347 ng·h/mL
O=S(=O)(NCCNC/C=C/c1ccc(Br)cc1)c1cccc2cnccc12		mouse zygotes	20 µM, 24 h post-hCG		embryos reaching blastocyst	0%
Cc1c(C)n(Cc2cccc(OC(C)(C)C(=O)O)c2)c2ccc(C(=O)N[C@@H](C)c3ccc(C(C)(C)C)cc3)cc12	indirect calorimetry	mice, diet-induced obese	dose not given, end of treatment		VO2	92.5 ± 9.05 mL/min/kg
NCC(=O)Nc1cncc(-c2nn3c(=O)cc(N4CCNCC4)nc3s2)c1	ADP-induced platelet aggregation, light transmission aggregometry	human, stable CAD on aspirin, ex vivo platelets	subcutaneous, 0.05 mg/kg, 90 min post-dose, mean value, together with: ADP 20 µM		inhibition	35%
CO[C@H]1CC[C@H](N2C(=O)CNc3ncc(-c4ccc(C(C)(C)O)nc4)nc32)CC1	flow cytometry	stimulated B cells, human, blood	30 mg single dose, 1.5 h, median	reference: baseline	pS6RP change from baseline	-64.1%
OC(CCN1CCCCC1)(c1ccccc1)C1CC2C=CC1C2 (centres unmarked)	resting-state EEG	healthy elderly humans	oral, 4 mg, eyes open, LS mean		EEG Beta1-power Pz-O1	3.5 µV²
CCOc1c([C@H](C)n2nc(C)c3c(N)ncnc32)cc(Cl)c(F)c1[C@@H]1CNC(=O)C1	Olink proximity extension proteomics, item: XCL1	human FL or MZL patients, plasma	dose not given, week 8	reference: baseline	plasma protein level change	-34%
CN(C)C(=O)Oc1cccc([N+](C)(C)C)c1	neuromuscular block reversal	rat	dose not given, 20.5 (unit not given), together with: cisatracurium	reference: T1 twitch	train-of-four ratio	99.3
C=CCn1c(=O)c2cnc(Nc3ccc(N4CCN(C)CC4)cc3)nc2n1-c1ccc2c(n1)[C@@](O)(CC)CC2		MCF7 xenograft, BALB/c nude mice	oral, 80 mg/kg once daily x 22, day 28		tumour volume difference	-92.4 ± 6.4 mm3
CN[C@@H]1COc2c(S(=O)(=O)NC(=O)Nc3c4c(cc5c3CCC5)CCC4)cnn2C1	item: IL-1β	human participants, whole blood ex vivo	150 mg single dose, 336 h, together with: LPS/ATP	reference: baseline	inhibition	7.9%
CC1(C)CCC(CN2CCN(c3ccc(C(=O)NS(=O)(=O)c4ccc(NCC5CCOCC5)c([N+](=O)[O-])c4)c(Oc4cnc5[nH]ccc5c4)c3)CC2)=C(c2ccc(Cl)cc2)C1	cell killing	canine lymph node CD3+ T cells, dog 34	24 h		EC50	1170 nM
CC(C)(C)c1sc2ncnc(Oc3c(F)cccc3OC(F)(F)F)c2c1-c1ccc(Cl)cc1		naive Mrgpr knock-out mice	oral, 16 mg/kg		thermal paw withdrawal latency	decreased
CC[C@@H]1[C@H](F)C(=O)N[C@@H]1COc1nccc2cc(C(N)=O)c(OC)cc12	ATP-site probe binding, ActivX profiling, item: PCTAIRE1, PCTAIRE3	THP-1 cell lysate	0.01 mM, Lys2 site		inhibition	-0.643%
CC(=O)NCC(=O)NCC(=O)N[C@H](C(=O)N[C@@H](Cc1ccc(O)cc1)C(=O)N[C@@H](CO)C(=O)N[C@H]1CSSC[C@@H](C(=O)N[C@@H](CCCNC(=N)N)C(=O)N2CCC[C@H]2C(=O)N[C@@H](CCC(N)=O)C(=O)N[C@@H](CCCNC(=N)N)C(=O)NCC(=O)NCCC(=O)N[C@@H](CCCCNC(=O)CN(CC(=O)NCCCC[C@H](NC(=O)CCNC(=O)CNC(=O)[C@H](CCCNC(=N)N)NC(=O)[C@H](CCC(N)=O)NC(=O)[C@@H]2CCCN2C(=O)[C@H](CCCNC(=N)N)NC(=O)[C@@H]2CSSC[C@H](NC(=O)[C@H](CO)NC(=O)[C@H](Cc3ccc(O)cc3)NC(=O)[C@@H](NC(=O)CNC(=O)CNC(C)=O)[C@@H](C)O)C(=O)N[C@@H](Cc3c[nH]cn3)C(=O)N[C@@H](Cc3ccccc3)C(=O)NCC(=O)N[C@@H](C)C(=O)N[C@@H](CC(C)C)C(=O)N[C@@H]([C@@H](C)O)C(=O)N[C@@H](Cc3c[nH]c4ccccc34)C(=O)N[C@@H](C(C)C)C(=O)N2)C(N)=O)C(=O)CCN)C(N)=O)NC(=O)[C@H](C(C)C)NC(=O)[C@H](Cc2c[nH]c3ccccc23)NC(=O)[C@H]([C@@H](C)O)NC(=O)[C@H](CC(C)C)NC(=O)[C@H](C)NC(=O)CNC(=O)[C@H](Cc2ccccc2)NC(=O)[C@H](Cc2c[nH]cn2)NC1=O)[C@@H](C)O		healthy BALB/c mice	subcutaneous, 0.08 mg/kg, 6 d, single dose		haematocrit	49.6%
COc1nnc2ccc(N3CCC(c4ccc(OCCN5CCN(C)C(=O)[C@H]5C)cc4)CC3)nn12		mice	0.075 mg/kg		time HEXIM1 above threshold	6.8 h
CC(C)NCC(O)c1ccc(O)c(O)c1 (centres unmarked)		ventricular cardiomyocytes, C57BL/6 mouse	dose not given, 0.684 s		sarcomere length	1.72 µm
N#CCC1CCN(c2nc(Nc3ccc(N4CCC(O)CC4)cc3)c3c(=O)[nH]ncc3n2)CC1	Olink multiplex, item: CD163	human, serum	80 mg, day 29	reference: baseline	fold change from baseline	-1.51
CC#CC(=O)N[C@H]1CCCN(c2c(F)cc(C(N)=O)c3[nH]c(C)c(C)c23)C1		human, peripheral blood	10 mg once daily, day 15	reference: baseline	B cells	171 % change
